Assay results collected from several papers.
Each line is one published result; not all experiments were run side by side. Values joined by “and” are separate records of one study, mostly repeats; a detail may differ. ± marks the error that the study gave.

SMILES	cell line	assay	test system	conditions	how to read	endpoint	result
COc1cc(CNC(=O)C[C@H](C)CCC=C(C)C)ccc1OCc1cn(-c2ccccc2[N+](=O)[O-])nn1	Malme-3M melanoma cells	SRB		10 µM, 48 h		growth percent	70.3%
O=Cc1c(O)ccc2ccccc12	HUVEC	RNA sequencing, item: GBP4		75 µM, 24 h	reference: DMSO	log2 fold change	-3.16
CN(C(=NN=C(c1ccccc1)c1ccccn1)[S][Ga]([Cl])[Cl])C1CCCCC1	HepG2	H2DCF-DA flow cytometry		5 µM, 24 h	reference: control	intracellular ROS level	27.1%
COc1cc(CNC(=O)C[C@H](C)CCC=C(C)C)ccc1OCc1cn(-c2ccc(C#N)cc2)nn1	OVCAR-4 ovarian cancer cells	SRB		10 µM, 48 h		growth percent	55.3%
CC(=NN=c1sc(C(=O)c2ccccc2)nn1-c1ccccc1)c1ccc(S(=O)(=O)N2CCC(C)CC2)cc1	HepG2	flow cytometry		3.31 µM, 72 h		cells in %S	34.6%
COc1ccc(NC(=O)COc2ccc(/C=C/C(C)=N/O)cc2OC)cc1	SH-SY5Y	flow cytometry		5 µM, added: amyloid beta 10 µM		TNF-α expressing cells	35.3%
COc1ccc(-c2cn([C@H]3C[C@H](O)[C@@H](CO)O3)c3ncnc(N)c23)cc1	HEK	cytotoxicity				EC50	104 ± 14 µM
COc1cc(CNC(=O)C[C@H](C)CCC=C(C)C)ccc1OCc1cn(-c2ccc(Br)cc2)nn1	OVCAR-8 ovarian cancer cells	SRB		10 µM, 48 h		growth percent	47.5%
C=CC(=O)Nc1ccc(F)c(-c2ncnc3[nH]cc(C(=O)OCC)c23)c1	mouse CD4 T-cell blasts	cell proliferation		added: IL-2		EC90	0.015 µM
CC[C@H](C)[C@H](NC(=O)[C@@H](NC(=O)C(C)(C)N)C(C)C)C(=O)N[C@@H](C)C(N)=O	PC-12	Aβ42-induced neurotoxicity, inhibitor, MTT		concentration not given, 6 h, 37 °C, peptide to Aβ42 1:1, added: Aβ42 2 µM	reference: untreated cells	viability	100%
CC(C)(C)c1ccc2[c](c1)[Au-]1([S]c3ccccc3)[c]3cc(C(C)(C)C)ccc3-c3cncc-2[n+]31	HL-60			10 µM, 72 h		cell proliferation	not toxic
COc1cc(CNC(=O)C[C@H](C)CCC=C(C)C)ccc1OCc1cn(-c2ccc(F)cc2)nn1	OVCAR-4 ovarian cancer cells	SRB		10 µM, 48 h		growth percent	73.1%
COc1ccc(-c2cc(C(F)(F)F)nc(SCC(=O)N(C)c3ccccc3)n2)cc1OC	rat INS-1 832/13 cells			20 µM, no GLP-1, added: 15 mM glucose	reference: DMSO	insulin secretion	increased
Cc1c2ccnc(C(=O)N[C@H](C)CN(C)C)c2cc2c3cc(OCCCN4CCN(C)CC4)ccc3n(C)c12	healthy donor iPSCs	RNA-seq		0.1 µM		significantly affected genes	0.098%
CC(=O)OC[C@H]1O[C@@H](Sc2sc(C(=O)c3ccc(C)cc3)c(N)c2-c2nc3ccccc3s2)[C@H](OC(C)=O)[C@@H](OC(C)=O)[C@H]1OC(C)=O	HCC 2998	SRB		10 µM, 48 h	reference: untreated	growth	106%
CCC(=C(c1ccc(Cl)cc1)c1ccc(OCCN2CCCC2)cc1)c1ccc(OC)cc1	NCI-60 tumour cell lines			10 µM, mean over cell lines		growth inhibition	33.9%
COc1cc(CNC(=O)C[C@H](C)CCC=C(C)C)ccc1OCc1cn(-c2ccccc2)nn1	OVCAR-3 ovarian cancer cells	SRB		10 µM, 48 h		growth percent	117%
C[C@@H]1O[C@@H](O[C@H]2[C@H](O[C@H]3CC[C@@]4(C)C(CC[C@]5(C)C4CC=C4C6CC(C)(C)CC[C@]6(C(=O)O[C@@H]6O[C@H](CO)[C@@H](O)[C@H](O)[C@H]6O)CC[C@]45C)[C@]3(C)CO)OC[C@H](O)[C@@H]2O)[C@H](O)[C@H](O[C@@H]2OC[C@@H](O)[C@H](O)[C@H]2O)[C@H]1O (stereo partly shown)	HepG2, palmitic acid-induced insulin resistance			10.0 µM, 24 h		glucose consumption	8.59 ± 1.46 mM
Cc1cc(/N=N/c2ccc(/N=N/c3ccc(O)c(C(=O)O)c3)cc2)c(N)cc1N	primary mouse articular chondrocytes	real-time PCR, item: Phlpp2		25 µM		mRNA level	decreased
C=CC(=O)Nc1cc(Nc2nccc(-c3c(-c4cccc(OC)c4)n(C)c4ccccc34)n2)c(OC)cc1N(C)CCN(C)C	H1975	Western blot, item: Bax		concentration not given, 24 h		protein level	increased
CCC12CCc3c(c4ccccc4n3C)CCN(CC3OC31)C2 (stereo not shown)	BV-2	western blot		concentration not given, added: LPS		TLR4 and MyD88 protein level	inhibited
O=C1OCC2=C1C(c1cccc(Br)c1)C1=C(N2)C(=O)c2ccccc2C1=O (stereo not shown)	SK-LU-1 cells	annexin V/PI		0.08 µM, 24 h		early apoptotic cells	6.05%
COc1cc(CNC(=O)C[C@H](C)CCC=C(C)C)ccc1OCc1cn(-c2cccc(Cl)c2)nn1	OVCAR-3 ovarian cancer cells	SRB		10 µM, 48 h		growth percent	71%
CC(=O)O[C@@H]1CC[C@@]2(C)C(CC[C@]3(C)C2C(=O)C=C2C4[C@@H](C)[C@H](C)CC[C@]4(C)CC[C@]23C)[C@@]1(C)C(=O)N/N=C1/C(=O)Nc2ccccc21 (stereo partly shown)	HepG2			10 µM, acetaminophen-induced injury, added: 10 mM acetaminophen		MDA level	4.7 nmol/mg
CC(Cc1ccc(Cl)cc1)=C(c1ccc(Cl)cc1)c1ccc(OCCCN(C)C)cc1	NCI-60 tumour cell lines			10 µM, mean over cell lines		growth inhibition	4.88%
N[C@@H](CCC(=O)N[C@@H](CS[Se]Cc1ccc(-c2cc(C(F)(F)F)nn2-c2ccc(S(N)(=O)=O)cc2)cc1)C(=O)NCC(=O)O)C(=O)O	UACC-903 melanoma	propidium iodide flow cytometry		25 µM, 72 h	reference: untreated	sub-G0/G1 cells	4.7 fold

SMILES	cell line	assay	test system	conditions	how to read	endpoint	result
CC1[C@H](O)CC(=C/C=C2\CCC[C@]3(C)[C@@H]([C@H](C)CCCCO)CC[C@@H]23)C[C@H]1O (stereo partly shown)	HL-60	cell differentiation, NBT reduction			reference: compound over 1α,25-dihydroxyvitamin D3	EC50 ratio	15
CC(=O)OC[C@H]1O[C@@H](Sc2nc3c4cnn(C(=O)CNc5ccc(C)cc5)c4ncn3n2)[C@H](OC(C)=O)[C@@H](OC(C)=O)[C@@H]1OC(C)=O	HCT cells	annexin V-FITC/PI flow cytometry		concentration not given, 48 h		early apoptotic cells	21.5%
COc1ccc(CC(C)=C(c2ccc(Cl)cc2)c2ccc(OCCN3CCCCC3)cc2)cc1	NCI-60 tumour cell lines			10 µM, mean over cell lines		growth inhibition	5.84%
CNC(=O)c1ccccc1Oc1nc(Nc2cc(OC)c(OC)c(OC)c2)ncc1Br	C2C12 myotubes	inhibitor		concentration not given		uridine uptake	inhibited
COc1cc(CNC(=O)C[C@H](C)CCC=C(C)C)ccc1OCc1cn(-c2ccc([N+](=O)[O-])cc2)nn1	Malme-3M melanoma cells	SRB		10 µM, 48 h		growth percent	76.2%
CC(C)=CCc1c(O)cc2c(c1O)C(=O)OC2	HepG2, palmitic acid-induced insulin resistance			12.5 µM, 24 h		glucose consumption	10.6 ± 0.84 mM
CC(=O)Nc1ccc(OC(=O)CCC(=O)[O][Pt-2]23([O]C(=O)CCC(=O)Oc4ccc(NC(C)=O)cc4)([NH2+][C@@H]4CCCC[C@H]4[NH2+]2)[O]C(=O)C(=O)[O]3)cc1	4T1		supernatant	concentration not given, 24 h	reference: untreated	IFN-beta level	3.1 fold
O=[N+]([O-])c1ccc(NC2=N[N+](=Cc3cccs3)[Pt-]([Cl])([Cl])[S]2)cc1	HEL human lung fibroblasts	altered cell morphology, microscopy		confluent cultures		cytotoxic concentration	≥ 100 µM
CCCCCCCCCCCCCCOc1c(O)cc(C(=O)O[C@@H]2Cc3c(O)cc(O)cc3O[C@@H]2c2cc(O)c(O)c(O)c2)cc1O	U-87 MG	western blot, item: p62/SQSTM1		50 µM, 24 h		protein level	decreased
[Ru+2].c1ccc(-c2cccc(-c3ccccn3)n2)nc1.c1ccc2nc(-c3nc4ccccc4s3)ccc2c1.c1cnccn1	HL-60				reference: dark IC50 over light IC50	phototoxicity index	> 3.6
CN1CCC(N[C@@H]2CCc3[nH]c4c(C(N)=O)ccc(-c5ccccc5Cl)c4c3C2)CC1	RKO	western blot, item: p21		concentration not given	reference: untreated	protein level	increased
COc1cc(CNC(=O)C[C@H](C)CCC=C(C)C)ccc1OCc1cn(-c2ccc(Cl)cc2Cl)nn1	SF-268 CNS cancer cells	SRB		10 µM, 48 h		growth percent	52.3%
COc1ccc([C@@H]2CC(=O)c3c(O)cc(O[C@@H]4O[C@H](CO[C@@H]5O[C@@H](C)[C@H](O)[C@@H](O)[C@H]5O)[C@@H](O[C@H]5O[C@H](CO)[C@@H](O)[C@H](O)[C@H]5O)[C@H](O)[C@H]4O)cc3O2)cc1O	MRC5	trypan blue exclusion		150 µg/mL, 72 h		cell count	13300 ± 608
CCNc1cc2c(cc1C)C1(c3cc(C)c(NCC)cc3O2)c2ccccc2C(=O)N1N=Cc1c[c-]c(-c2ccccn2)cc1.Cc1c(C)c(-c2ccc(-c3ccccc3)cc2)[c-](C)c1C.[Cl-].[Ir+3]	A549	JC-1 flow cytometry		2.0 × IC50, 24 h		JC-1 monomer cells	3.86%
O=C(/C=C/c1cccc(S(=O)(=O)NC2CCCCC2)c1)NO	MOPC-315	cell growth		24 h	reference: belinostat	relative potency	0.714
Nc1c(S(=O)(=O)O)cc(Nc2cccc(S(N)(=O)=O)c2)c2c1C(=O)c1ccccc1C2=O	primary mouse articular chondrocytes	real-time PCR, item: Prg4		25 µM, micromass culture		mRNA level	increased
COc1cc(/C=C2\SC(=S)NC2=O)cc(OC)c1OCc1ccc(B2OC(C)(C)C(C)(C)O2)cc1	RAW264.7 cells expressing mito-FAST	flow cytometry		concentration not given, added: PMA	reference: PMA over no PMA	red fluorescence ratio	~4 fold
[Cl][Pt-]1([Cl])[S]C(Nc2ccccc2)=N[N+]1=Cc1ccc(-c2ccccc2)s1	HEL human lung fibroblasts	altered cell morphology, microscopy		confluent cultures		cytotoxic concentration	100 µM
CC(C)=CCc1c(O)cc(CO)cc1O	HepG2, palmitic acid-induced insulin resistance			2.5 µM, 24 h		glucose consumption	4.64 ± 0.57 mM
COCCNCC(=O)N(CCCCN)CC(=O)N(CC(=O)N(CC(=O)N(CCCCN)CC(=O)N[C@@H](CCCCN)C(=O)N[C@H](CCCCN)C(=O)N[C@@H](CCSC)C(=O)NCCCC[C@H](NC(=O)[C@H](CCSC)NC(=O)[C@@H](CCCCN)NC(=O)[C@H](CCCCN)NC(=O)CN(CCCCN)C(=O)CN(C(=O)CN(Cc1ccc2c(c1)OCO2)C(=O)CN(CCCCN)C(=O)CNCCOC)[C@H](C)c1ccccc1)C(N)=O)[C@H](C)c1ccccc1)Cc1ccc2c(c1)OCO2	H358	qRT-PCR, item: PLEC mRNA		6 days		onset concentration	1 µM
Nc1ncnc2c1c(-c1ccccc1)cn2[C@H]1C[C@H](O)[C@@H](CO)O1	HEK	cytotoxicity				EC50	> 200 µM
CCC(=C(c1ccc(Cl)cc1)c1ccc(OCCN2CCCCC2)cc1)c1ccc(Cl)cc1	NCI-60 tumour cell lines			10 µM, mean over cell lines		growth inhibition	26.6%
Fc1ccc(Nc2nc(NC3CCCCC3)c3ccccc3n2)cc1F	HASM	magnetic twisting cytometry, item: cell stiffness		1 µM, added: isoproterenol 10 µM		time to greater relaxation	~44 s
COc1cccc(OC)c1OCCCn1cc(CCCNc2nc3c(c(=O)[nH]2)[n+](C)cn3C2OC(COP(=O)(O)OP(=O)([O-])OP(=O)(O)OCC3OC(n4cnc5c(=O)[nH]c(N)nc54)C(O)C3O)C(O)C2O)nn1 (stereo not shown)	HEK293 transfected with capped mRNA	luciferase expression			reference: m7GpppG-capped mRNA	relative protein expression	1.96 and 2
O=C1c2ccc(O)cc2OC1(O)Cc1ccc(O)c(O)c1 (stereo not shown)	MRC5 over HL-60	cytotoxicity, MTT		72 h	reference: IC50 MRC5 over IC50 HL-60	selectivity ratio	> 9.41
Cc1cc(O)c2c(C(=O)[O-])[n+]3n(c2c1)CCCC3	HepG2, palmitic acid-induced insulin resistance			10.0 µM, 24 h		glucose consumption	8.47 ± 0.46 mM

Repeated from above:
SMILES	cell line	assay	test system	conditions	how to read	endpoint	result
CCC12CCc3c(c4ccccc4n3C)CCN(CC3OC31)C2 (stereo not shown)	BV-2	western blot		concentration not given, added: LPS		TLR4 and MyD88 protein level	inhibited
O=C1OCC2=C1C(c1cccc(Br)c1)C1=C(N2)C(=O)c2ccccc2C1=O (stereo not shown)	SK-LU-1 cells	annexin V/PI		0.08 µM, 24 h		early apoptotic cells	6.05%
COc1cc(CNC(=O)C[C@H](C)CCC=C(C)C)ccc1OCc1cn(-c2cccc(Cl)c2)nn1	OVCAR-3 ovarian cancer cells	SRB		10 µM, 48 h		growth percent	71%
CC(=O)O[C@@H]1CC[C@@]2(C)C(CC[C@]3(C)C2C(=O)C=C2C4[C@@H](C)[C@H](C)CC[C@]4(C)CC[C@]23C)[C@@]1(C)C(=O)N/N=C1/C(=O)Nc2ccccc21 (stereo partly shown)	HepG2			10 µM, acetaminophen-induced injury, added: 10 mM acetaminophen		MDA level	4.7 nmol/mg
CC(Cc1ccc(Cl)cc1)=C(c1ccc(Cl)cc1)c1ccc(OCCCN(C)C)cc1	NCI-60 tumour cell lines			10 µM, mean over cell lines		growth inhibition	4.88%
N[C@@H](CCC(=O)N[C@@H](CS[Se]Cc1ccc(-c2cc(C(F)(F)F)nn2-c2ccc(S(N)(=O)=O)cc2)cc1)C(=O)NCC(=O)O)C(=O)O	UACC-903 melanoma	propidium iodide flow cytometry		25 µM, 72 h	reference: untreated	sub-G0/G1 cells	4.7 fold
CC1[C@H](O)CC(=C/C=C2\CCC[C@]3(C)[C@@H]([C@H](C)CCCCO)CC[C@@H]23)C[C@H]1O (stereo partly shown)	HL-60	cell differentiation, NBT reduction			reference: compound over 1α,25-dihydroxyvitamin D3	EC50 ratio	15
CC(=O)OC[C@H]1O[C@@H](Sc2nc3c4cnn(C(=O)CNc5ccc(C)cc5)c4ncn3n2)[C@H](OC(C)=O)[C@@H](OC(C)=O)[C@@H]1OC(C)=O	HCT cells	annexin V-FITC/PI flow cytometry		concentration not given, 48 h		early apoptotic cells	21.5%
